Measured values of several laboratories.
A part holds a random share of what one study measured. Substitutions count along the parent as printed.

Sample 1
Target: Ras GTPase-activating protein-binding protein 1, full length (G3BP1, Homo sapiens, UniProt Q13283)
Chain of UniProt Q13283 (whole entry, looked up): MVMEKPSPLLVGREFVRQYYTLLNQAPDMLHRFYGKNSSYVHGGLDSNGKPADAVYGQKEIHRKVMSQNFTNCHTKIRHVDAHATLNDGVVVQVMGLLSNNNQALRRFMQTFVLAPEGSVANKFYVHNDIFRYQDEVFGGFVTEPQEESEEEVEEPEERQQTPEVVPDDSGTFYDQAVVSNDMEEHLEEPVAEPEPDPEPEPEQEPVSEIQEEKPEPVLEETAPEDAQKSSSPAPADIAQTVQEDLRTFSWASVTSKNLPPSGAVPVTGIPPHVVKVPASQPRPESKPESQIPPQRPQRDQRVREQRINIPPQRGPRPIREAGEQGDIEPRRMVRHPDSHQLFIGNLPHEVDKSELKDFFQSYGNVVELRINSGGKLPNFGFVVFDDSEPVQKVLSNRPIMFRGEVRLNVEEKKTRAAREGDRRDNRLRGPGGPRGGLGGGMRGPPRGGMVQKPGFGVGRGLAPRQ
Technique: RNA Bind-n-Seq
Molecule type: RNA
Sample: in vitro
Tested at: 200 nM
Notes: whole 134-nt RNA, ends assumed
Added: 150 mM LiCl
Reference: input library
Direction: higher = stronger binding
All molecules: 7-deaza-guanosine replaces G
With `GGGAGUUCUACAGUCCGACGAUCACCAUGCAGGUGGGCAUCUUUGGGAAAAAGGGCAAGGGGGGGAUAGGGAGGGGGGUAACACUUUGGGAACAGGUGGUCCCAGGUCGUUUCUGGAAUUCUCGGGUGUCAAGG` the log2 enrichment was 0.312.
`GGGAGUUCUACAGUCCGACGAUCCACAGACAACACGCACCCACACAGACACAGAGGGAAGGGGUUGGGAUGGGGACAGGGUAAACAGCAGGGCGGGGUAGGACCCCAGCCCCUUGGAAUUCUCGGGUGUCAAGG` has a log2 enrichment of -0.431.
`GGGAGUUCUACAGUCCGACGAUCUCAAGUCCUGUGCUACACAUCGUAUGUACCGAAUCGGGAAAGGGUUUGGGAGGGAAAGUAUUAUGUUACGCCGUUCGGAUCUGCACUUCCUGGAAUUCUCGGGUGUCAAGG` has a log2 enrichment of -0.262.
`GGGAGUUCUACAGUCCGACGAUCUCCUCAAGUCCUGUGCUACACAUCGUAUGUACCGAAUCGGAGGGGAGGGAGGAAAGUAUUAUGUUACGCCGUUCGGAUCUGCACUUCCAGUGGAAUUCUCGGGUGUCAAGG` gave a log2 enrichment of -1.05.
`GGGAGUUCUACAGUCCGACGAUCUCCUCAAGUCCUGUGCUACACAUCGUAUGUACCGAAUCGGGUGGGUGGUGGGAAAGUAUUAUGUUACGCCGUUCGGAUCUGCACUUCCAGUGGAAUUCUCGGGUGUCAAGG` has a log2 enrichment of 0.773.
`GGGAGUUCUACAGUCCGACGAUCUCCUCAAGUCCUGUGCUACACAUCGUAUGUACCGAAUCGGGUGGGUGGUGGAAAGUAUUAUGUUACGCCGUUCGGAUCUGCACUUCCAGCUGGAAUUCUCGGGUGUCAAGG` gave a log2 enrichment of 0.151.
With `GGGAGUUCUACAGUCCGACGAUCACCAUGCAGGUGGGCAUCUUUGGGAAGUGGGGCAAGGGGGGGAUAGGGAGGGGGGUAACACUUUGGGCACAGGUGGUCCCAGGUCGUUUCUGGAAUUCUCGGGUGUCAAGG` the log2 enrichment was -0.0501.
The log2 enrichment of `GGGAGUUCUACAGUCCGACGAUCAAACAGCUCUAUAACAAAAUACAAUGCGGGUUCAUGUUAAUGUUUUUAUCUCUAACAGGUUGGUUUCAGUGCUGAUGAAACUUGGGACUCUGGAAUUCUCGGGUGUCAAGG` is reported as -2.35.

Sample 2
Target: Centromere-binding protein 1, full length, N-terminal tag (CBF1, Saccharomyces cerevisiae, UniProt P17106, residues 1-351)
Chain of UniProt P17106 (whole entry, looked up): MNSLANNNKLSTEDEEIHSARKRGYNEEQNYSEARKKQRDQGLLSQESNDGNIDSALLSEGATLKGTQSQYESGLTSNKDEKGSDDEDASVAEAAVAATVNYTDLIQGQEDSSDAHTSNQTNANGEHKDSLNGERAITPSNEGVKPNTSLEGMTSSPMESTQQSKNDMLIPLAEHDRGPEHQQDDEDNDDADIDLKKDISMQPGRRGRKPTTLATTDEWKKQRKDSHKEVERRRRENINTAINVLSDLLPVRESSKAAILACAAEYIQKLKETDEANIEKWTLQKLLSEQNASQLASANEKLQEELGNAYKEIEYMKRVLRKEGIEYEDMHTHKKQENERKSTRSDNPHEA
Technique: protein-binding microarray
Molecule type: double-stranded DNA, one strand shown
Sample: in vitro
Tested at: 0.8 µM
Notes: whole 60-bp probe, no competitor
Direction: higher = stronger binding
With `CTAACATCAGCCCATCACCCATTTATTTGTTCTTTCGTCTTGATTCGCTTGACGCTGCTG` the fluorescence intensity was 508 a.u.
`CTATATCTTCTCTTTCACGATATAGATTCACGCTTCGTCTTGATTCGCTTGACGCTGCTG` gave a fluorescence intensity of 569 a.u.
`CTATTACAAAATTTCCACGCAACAGCTTTTATTTTCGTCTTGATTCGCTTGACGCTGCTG` gave a fluorescence intensity of 507 a.u.
With `CTATATTCAGACCCTTACATCAGCAGCAGCACGTTCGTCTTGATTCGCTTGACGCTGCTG` the fluorescence intensity was 573 a.u.
`CTACACCGTCACCATCACCATCATATCGCCTTATTCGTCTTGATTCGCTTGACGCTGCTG` gave a fluorescence intensity of 532 a.u.
`GAAAAATCGTGCAAGAACGTGAGGATCTGTATATAGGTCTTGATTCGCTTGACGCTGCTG` has a fluorescence intensity of 589 a.u.
For `CTAGAAAGGCTGTTACATGATCACTAATCGTAATTCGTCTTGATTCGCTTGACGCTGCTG`, the fluorescence intensity was 524 a.u.
The fluorescence intensity of `GAATGCTTTACAACTCATCTCCTGTAATTTCCATAGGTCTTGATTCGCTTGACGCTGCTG` is reported as 516 a.u.
`GAATCTAGTTTTCAACATGTGGTGGCTTGTTCTTAGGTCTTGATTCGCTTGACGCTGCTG` has a fluorescence intensity of 594 a.u.
For `CTATGTTATCAGTGTCTGATGCAGAGGTATTACTTCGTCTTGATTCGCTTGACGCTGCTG`, the fluorescence intensity was 521 a.u.
With `CCTAACTACTATAGTCACATATAATAGCTTCGTACAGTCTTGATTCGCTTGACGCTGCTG` the fluorescence intensity was 508 a.u.
With `CTATATCATTTAAATCACATGGACACCCACCGATTCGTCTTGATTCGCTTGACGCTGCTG` the fluorescence intensity was 2230 a.u.
With `CTAGGTATGTTCAATTGCACCACCAGTATTCGATTCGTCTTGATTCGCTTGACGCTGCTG` the fluorescence intensity was 500 a.u.
The fluorescence intensity of `TGTACGAAGCTATAAGACGTGCCTATAGTAGTTAGGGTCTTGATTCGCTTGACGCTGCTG` is reported as 519 a.u.

Sample 3
Molecule: PhoQ, residues 284 288 289 292 302 303 AGHLVA
Technique: Sort-seq
Measured: YFP reporter
Sample: E. coli
Notes: PhoQ-PhoP variant library
Added: 10 µM Mg2+
Reference: high Mg2+ state
Direction: higher = stronger signaling
It gave 6.32 for fold induction (PhoP, residues 12 14 15 18 19 QYCSL (Escherichia coli, UniProt P23836)).
PhoP, residues 12 14 15 18 19 STHWV (Escherichia coli, UniProt P23836) — fold induction: 1.02.
PhoP, residues 12 14 15 18 19 SHWTV (Escherichia coli, UniProt P23836) — fold induction: 0.978.

Sample 4
Target: CCNB2, cyclin fold, Cln2 fusion (human)
Technique: yeast growth competition, sequencing
Sample: yeast
Notes: weak parent motif
Reference: not given
Direction: higher = stronger binding
Starting sequence: CABLES2 docking peptide (human); ICAKRSLCAAFSV; partner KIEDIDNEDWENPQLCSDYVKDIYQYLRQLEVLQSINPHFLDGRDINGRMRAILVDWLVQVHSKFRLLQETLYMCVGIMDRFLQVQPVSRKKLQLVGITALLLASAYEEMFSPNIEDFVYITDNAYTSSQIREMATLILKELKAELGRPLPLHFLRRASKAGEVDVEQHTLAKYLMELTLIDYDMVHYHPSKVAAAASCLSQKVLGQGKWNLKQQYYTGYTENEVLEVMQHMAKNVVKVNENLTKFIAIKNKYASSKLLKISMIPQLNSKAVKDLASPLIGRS
Under “normalised enrichment score”, `C2A` is recorded as 0.00781.
`I1A` — result for “normalised enrichment score”: 0.0327.
Under “normalised enrichment score”, `L7A` is recorded as -0.102.
`K4A`: “normalised enrichment score” -0.242.
Under “normalised enrichment score”, `V13A` is recorded as 0.238.

Excerpt of the above (sample 2):
For `CTAGAAAGGCTGTTACATGATCACTAATCGTAATTCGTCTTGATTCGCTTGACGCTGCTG`, the fluorescence intensity was 524 a.u.
The fluorescence intensity of `GAATGCTTTACAACTCATCTCCTGTAATTTCCATAGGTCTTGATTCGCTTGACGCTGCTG` is reported as 516 a.u.
`GAATCTAGTTTTCAACATGTGGTGGCTTGTTCTTAGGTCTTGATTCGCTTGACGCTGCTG` has a fluorescence intensity of 594 a.u.
For `CTATGTTATCAGTGTCTGATGCAGAGGTATTACTTCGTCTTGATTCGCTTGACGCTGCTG`, the fluorescence intensity was 521 a.u.
